Measurements from different studies.
Numbers after ± are the reported error.
Method: steady-state kinetics
B1: Tat (Mus musculus, UniProt Q8QZR1); chain WNVRPSDMSNKTFNPIRAIVDNMKVKPNPNKTVISLSIGDPTVFGNLPTDPEVTQAMKDALDSGKYNGYAPSIGYLSSREEVASYYHCPEAPLEAKDVILTSGCSQAIELCLAVLANPGQNILIPRPGFSLYRTLAESMGIEVKLYNLLPEKSWEIDLKQLESLIDEKTACLVVNNPSNPCGSVFSKRHLQKILAVAERQCVPILADEIYGDMVFSDCKYEPMATLSTNVPILSCGGLAKRWLVPGWRLGWILIHDRRDIFGNEIRDGLVKLSQRILGPCTIVQGALKSILQRTPQEFYQDTLSFLKSNADLCYGALSAIPGLQPVRPSGAMYLMVGIEMEHFPEFENDVEFTERLIAEQSVHCLPATCFEYPNFFRVVITVPEVMMLEACSRIQEFCEQHY
B2: asnB E349D (Escherichia coli, UniProt P22106); chain CSIFGVFDIKTDAVELRKKALELSRLMRHRGPDWSGIYASDNAILAHERLSIVDVNAGAQPLYNQQKTHVLAVNGEIYNHQALRAEYGDRYQFQTGSDCEVILALYQEKGPEFLDDLQGMFAFALYDSEKDAYLIGRDHLGIIPLYMGYDEHGQLYVASEMKALVPVCRTIKEFPAGSYLWSQDGEIRSYYHRDWFDYDAVKDNVTDKNELRQALEDSVKSHLMSDVPYGVLLSGGLDSSIISAITKKYAARRVEDQERSEAWWPQLHSFAVGLPGSPDLKAAQEVANHLGTVHHEIHFTVQEGLDAIRDVIYHIETYDVTTIRASTPMYLMSRKIKAMGIKMVLSGDGSDEVFGGYLYFHKAPNAKELHEETVRKLLALHMYDCARANKAMSAWGVEARVPFLDKKFLDVAMRINPQDKMCGNGKMEKHILRECFEAYLPASVAWRQKEQFSDGVGYSWIDTLKEVAAQQVSDQQLETARFRFPYNTPTSKEAYLYREIFEELFPLPSAAECVPGGPSVACSSAKAIEWDEAFKKMDDPSGRAVGVHQSAYK
B3: sacB Y421F (Priestia megaterium, UniProt D5DC07); chain KGNDSKDFNNSYGISHITRDNMVKIPQQQNSDQFKVPAFDESTIKNIASAKGKNASGNTIDLDVWDSWPLQNADGTVATYHGYQIVFALAGDPKDSNDTSVYLFYKKAGDKSIDSWKNAGRVFKDSDKFVPNDPHLKNQTQEWSGSGTLTKDGKVRLFYTDYSGKQYGKQTLTTAQVNMSQPNDNTLKVDGVEDYKSIFDGDGKIYQTVQQFIDEGGYDTGDNHTLRDPHYIEDNGHKYLVFEANTGTEDGYQGEDSLYNRAYYGGNNPFFQSEKKKLLEGSNKEKASLANGALGIIELNDDYTLKKVMKPLITSNTVTDEIERANIFKKDGKWYLFTDSRGSKMTIDGIGQDDVYMLGYVSNTLTGKYKPLNDTGLVLHMDLDPNDKTFTFSHFAVPQTKGDNVVITSYMTNRGFYEDNHSTFAPSFLVNIDGSKTSVVKDRVLEQGQLTVDED
B4: Paox H64A (Mus musculus, UniProt Q8C0L6); chain MAFPGPRVLVVGSGIAGLGAAQKLCSHRAAPHLRVLEATASAGGRIRSERCFGGVVELGAHWIAGPSQDNPVFQLAAEFGLLGEKELSEENQLVDTGGHVALPSMIWSSSGTSVSLELMTEMARLFYGLIERTREFLNESETPMASVGEFLKKEISQQVASWTEDDEDTRKRKLAILNTFFNIECCVSGTHSMDLVALAPFGEYTVLPGLDCILAGGYQGLTDRILASLPKDTVAFDKPVKTIHWNGSFQEAAFPGETFPVLVECEDGARLPAHHVIVTVPLGFLKEHQDTFFEPPLPAKKAEAIKKLGFGTNNKIFLEFEEPFWEPDCQFIQVVWEDTSPLQDTALSLQDTWFKKLIGFLVQPSFESSHVLCGFIAGLESEFMETLSDEEVLLSLTQVLRRVTGNPQLPAAKSVRRSQWHSAPYTRGSYSYVAVGSTGDDLDLMAQPLPEDGTGTQLQVLFAGEATHRTFYSTTHGALLSGWREADRLVSLWDSQVEQSRPRL
B5: ASRGL1 (Homo sapiens, UniProt Q7L266); chain 1 MNPIVVVHGGGAGPISKDRKERVHQGMVRAATVGYGILREGGSAVDAVEGAVVALEDDPEFNAGCGSVLNTNGEVEMDASIMDGKDLSAGAVSAVQCIANPIKLARLVMEKTPHCFLTDQGAAQFAAAMGVPEIPGEKLVTERNKKRLEKEKHEKGAQKTDCQKNLG; chain 2 TVGAVALDCKGNVAYATSTGGIVNKMVGRVGDSPCLGAGGYADNDIGAVSTTGHGESILKVNLARLTLFHIEQGKTVEEAADLSLGYMKSRVKGLGGLIVVSKTGDWVAKWTSTSMPWAAAKDGKLHFGIDPDDTTITDLP
B6: TcC (Trypanosoma cruzi, UniProt Q4DGA3); chain MPREYEFAEKILFTEEEIRTRIMEVAKRIADDYKGKGLRPYVNPLVLISVLKGSFMFTADLCRALSDFNVPVRMEFICVSSYGEGVTSSGQVRMLLDTRHSIEGHHVLIVEDIVDTALTLNYLYHMYFTRRPASLKTVVLLDKREGRRVPFSADYVVANIPNAFVIGYGLDYDDTYRELRDIVVLRPEVYAEREAARQKKQRAIGSADTDRDAKREFHSKY
B7: protein Y93T (Thermus thermophilus, UniProt Q5SKR5); chain MSAPKPFVIGIAGGTASGKTTLAQALARTLGERVALLPMDHYYKDLGHLPLEERLRVNYDHPDAFDLALYLEHAQALLRGLPVEMPVYDFRATTRSPRRTPVRPAPVVILEGILVLYPKELRDLMDLKVFVDADADERFIRRLKRDVLERGRSLEGVVAQYLEQVKPMHLHFVEPTKRYADVIVPRGGQNPVALEMLAAKALARLARMGAA
B8: enzyme (Thermobifida fusca, UniProt Q47RK4); chain MTDVYILDAVRTPFGRYGGALSGIRPDDLAAHVLRALAERSPGLDPAAVDDVFFGDANGAGEDNRNVARMAALLAGWPTSVPGVTLNRLCGSGMESVIAANRAIAVGDASLAVAGGVESMSRAPWVLPKPAQGFPTGHETLYSTTLGWRMVNPAMPEQWTVSLGESTEQVAATYGISRAEQDAFALRSHERAARAWAEGVFDAEITQIPGAELERDESIRETSAEKLAALKPAFRPDGTITAGNASPLNDGAAALLIGDAAAAERVGREPLARIVSRGVAAVDPDVFGIGPVQAAEIALRRAGIGWDDLSVVELNEAFAAQSLACLKLWPDLDPEIVNPNGGAIAIGHPLGASGARIVGTLAHELHRRGGGWGLAAICIGVGQGLAVVLHR
B9: Tcur_2987 W376F (Thermomonospora curvata, UniProt D1A807); chain ACSEERAAGARPSATQTTGTATEPFHGPHQAGIATPPQAHAVFLGLDLRKGTGRKELGRLMRLLTDDARRLTQGRPALADPEPDLAPLPSRLTFTFGFGPGLFKAAGLEKQRPEGLRPLPPFKVDRLEDRWSGGDLLVQICCDDPITLAHALRMTVKDARAFTRVRWVQRGFRRSPGVQSSGATQRNLMGQLDGTVNPVPGTADFDQAVWVQDGPEWLRGGTTLVLRRIRMELEKWDEADPAGKEFAVGRRLTSGAPLTGRHEHDEPDFDAVDSAGFPVIAENAHIRLAHVDSPRLRMLRRPYNYDEGLTADGRSDAGLLFAAYQADIDRQFIPVQRRLDEGGDLLNLFTTPIGSAVFAIPPGCDENGWIGQGLLG
B10: putA N1014A (Rhodobacter capsulatus, UniProt D5AN87); chain MTDLSALGPKAKFAPEAEVLQALVAQAALPQPQLDRIAARGADLVARIRAEAKPSLMEHFLAQYGLSTREGVALMCLAEAMLRVPDTATIDALIEDKIAPSDWGKHLGTAASSLVNASTWALMLTGKVLDDGAGGIAGTLRGAMRRLGEPVIRAAVGQAMREMGRQFVLGETIEKALERAEKREAEGYTFSYDMLGEAALTAADAERYRLAYAQAITAIGKAATRGSIAANPGISIKLSALHPRYEVAQEARVMAELVPVVRDLARAAARAGIALHIDAEEQDRLALSLRVMAAVIADPETAGWEGFGAVVQAYGKRAGAAIDALAAMARAAGRRINIRLVKGAYWDAEMKRAQVEGHPGFPLFTSKTGTDVAYICLAAKLFGLNDCIYPQFATHNAHTVAAVLEMAAGRPFEFQRLHGMGARLHDIVLRETGGRCRIYAPVGAHRDLLAYLVRRLLENGANSSFVNQIVNESVPPAEVAACPFAALPTARAPRGLLAPADLFGAGRVNAQGFDLSDPEVLARIEAARDVTLPDAAPIVAGPVSGTLRPVRNPATGAVVAQVTEADAATVALALDAAQVWSAPAATRAAVLCRAADLYEENFGPIFAALAQEAGKTLGDAVSELREAVDFLRYYAAEGAADTRPPRGAVVAISPWNFPLAIFTGQVAAALMAGNAVLAKPAEQTPIIAALAVRLLHQAGVPETALQLLPGDGPTVGAALTRDPRVAGVVFTGSTETAQIIARAMAAHLAPGTPLIAETGGLNAMVVDSTALPEQAVRDVVASAFRSAGQRCSALRCLYVQDDIAPHLIGMLKGAMEELVSGDPARLSTDVGPVIDAEAKAGIETYLAANKARILHRSTAPEGGHFVAPALLQVGGIADLEREIFGPVLHLATFAAEDLPAVIAAINARGYGLTFGLHSRIDARVETVAETIRAGNIYVNRNQIGAVVGSQPFGGEGLSGTGPKAGGPLYLNRFYAPEPVVAVGGWTEAATPILPEARETQLDEIFLPGPTGELARLTRHQRGPILCLGPGAEAASAQAAAVVALGGQAVQASGAVSPKALETLTPLAGVLWWGAAEMGRAYAQALAVRPGPLVPLITAKPDLAHVAHERHLCVDTTAAGGNAALLAG
B11: enzyme (Brachypodium distachyon, UniProt I1HY48); chain MGSIASEERTVTGWAARDADGHLSPYTYTLRKTGPEDVLVKVLYCGICHTDIHQAKNHLGASKYPMVPGHEVVGEVVEVGGEVSKYSAGDVVGVGVIVGCCRECRPCKASVEQYCNKRIWSYNDVYTDGRPTQGGFSSAMVVDQKFVVRIPAGLAPEQAAPLLCAGVTVYSPLKHFGLMSPGLRGGILGLGGVGHMGVKVAKSMGHHVTVISSSGKKRAEAMDDLGADAYLVSSDADQMAAAADSLDYVIDTVPVKHPLEPYLSLLKMDGKLVLMGVIGEPLSFVSPMVMLGRKSITGSFIGSMEETEEVLKFCVEKGLTSQIEVVKMDYLNEALERLERNDVRYRFVVDVAGSKIEDAA
UniProt Q9HJT3, sequence (whole entry, looked up): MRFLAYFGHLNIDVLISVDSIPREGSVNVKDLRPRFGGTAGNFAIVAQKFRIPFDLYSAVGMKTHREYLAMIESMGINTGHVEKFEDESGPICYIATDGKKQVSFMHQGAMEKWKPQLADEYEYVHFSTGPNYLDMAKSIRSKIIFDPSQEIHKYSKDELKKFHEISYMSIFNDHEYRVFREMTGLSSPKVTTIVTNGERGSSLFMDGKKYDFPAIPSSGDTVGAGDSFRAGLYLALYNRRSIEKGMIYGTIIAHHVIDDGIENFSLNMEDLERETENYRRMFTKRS

TaNK (Thermoplasma acidophilum, UniProt Q9HJT3) — kcat/Km (Nc1ncnc2c1ncn2[C@@H]1O[C@H](COP(=O)(O)OP(=O)(O)OP(=O)(O)O)[C@@H](O)[C@H]1O; pH 8, 22 °C, apparent, added: inosine, Mg2+): 3700 ± 100 M⁻¹ s⁻¹
B1 (Tat) — kcat/Km (N[C@@H](CCC(=O)O)C(=O)O; pH 7, 38 °C, added: PLP): 2000 M⁻¹ s⁻¹
B2 (asnB E349D) — kcat/Km (N[C@@H](CC(=O)O)C(=O)O; pH 8, 37 °C, apparent, added: L-glutamine 20 mM): 3450 M⁻¹ s⁻¹
B3 (sacB Y421F) — kcat/Km (OC[C@H]1O[C@@](CO)(O[C@H]2O[C@H](CO)[C@@H](O)[C@H](O)[C@H]2O)[C@@H](O)[C@@H]1O; pH 6.6): 550 M⁻¹ s⁻¹
B4 (Paox H64A) — kcat/Km (CC(=O)NCCCNCCCCNCCCN; pH 10, 30 °C): 62000 ± 14000 M⁻¹ s⁻¹
B5 (ASRGL1) — kcat/Km (CC(C)C[C@H](NC(=O)C[C@H](N)C(=O)O)C(=O)O; pH 7.4, 37 °C, NaCl 100 mM): 4000 ± 500 M⁻¹ s⁻¹
B6 (TcC) — kcat/Km (O=P(O)(O)OC[C@H]1O[C@H](OP(=O)(O)OP(=O)(O)O)[C@H](O)[C@@H]1O; pH 8.3, 37 °C, IMP biosynthesis, apparent, added: Hx 100 µM): 620000 ± 40000 M⁻¹ s⁻¹
B7 (protein Y93T) — kcat/Km (Nc1ccn([C@@H]2O[C@H](CO)[C@@H](O)[C@H]2O)c(=O)n1; pH 7.2, 25 °C, KCl 100 mM, added: ATP 100–200 µM): 5300 M⁻¹ s⁻¹
B8 (enzyme) — kcat/Km (CC(C)(COP(=O)(O)OP(=O)(O)OC[C@H]1O[C@@H](n2cnc3c(N)ncnc32)[C@H](O)[C@@H]1OP(=O)(O)O)[C@@H](O)C(=O)NCCC(=O)NCCSC(=O)CCC(=O)O; pH 7.4, 37 °C): 2.5 M⁻¹ s⁻¹
B9 (Tcur_2987 W376F) — kcat/Km (Nc1c(S(=O)(=O)O)cc(Nc2cccc(S(=O)(=O)CCOS(=O)(=O)O)c2)c2c1C(=O)c1ccccc1C2=O; pH 3, sigmoidal kinetics, added: H2O2 1 mM): 2.4e+06 M⁻¹ s⁻¹
B10 (putA N1014A) — kcat/Km (O=C(O)[C@@H]1CCCN1; pH 8, 23 °C): 110 ± 21 M⁻¹ s⁻¹
B11 (enzyme) — kcat/Km (NC(=O)C1=CN([C@@H]2O[C@H](COP(=O)(O)OP(=O)(O)OC[C@H]3O[C@@H](n4cnc5c(N)ncnc54)[C@H](OP(=O)(O)O)[C@@H]3O)[C@@H](O)[C@H]2O)C=CC1; pH 6.25, 23 °C, cofactor varied): 5.3e+06 M⁻¹ s⁻¹

For quick reference, copied from above:
B10 (putA N1014A) — kcat/Km (O=C(O)[C@@H]1CCCN1; pH 8, 23 °C): 110 ± 21 M⁻¹ s⁻¹
B5 (ASRGL1) — kcat/Km (CC(C)C[C@H](NC(=O)C[C@H](N)C(=O)O)C(=O)O; pH 7.4, 37 °C, NaCl 100 mM): 4000 ± 500 M⁻¹ s⁻¹
